Measured values of several laboratories.
A part holds a random share of what one study measured. Several values in a cell are separate wells, animals, samples, runs or records.
Chain of UniProt Q5XXA6 (whole entry, unmodified, looked up): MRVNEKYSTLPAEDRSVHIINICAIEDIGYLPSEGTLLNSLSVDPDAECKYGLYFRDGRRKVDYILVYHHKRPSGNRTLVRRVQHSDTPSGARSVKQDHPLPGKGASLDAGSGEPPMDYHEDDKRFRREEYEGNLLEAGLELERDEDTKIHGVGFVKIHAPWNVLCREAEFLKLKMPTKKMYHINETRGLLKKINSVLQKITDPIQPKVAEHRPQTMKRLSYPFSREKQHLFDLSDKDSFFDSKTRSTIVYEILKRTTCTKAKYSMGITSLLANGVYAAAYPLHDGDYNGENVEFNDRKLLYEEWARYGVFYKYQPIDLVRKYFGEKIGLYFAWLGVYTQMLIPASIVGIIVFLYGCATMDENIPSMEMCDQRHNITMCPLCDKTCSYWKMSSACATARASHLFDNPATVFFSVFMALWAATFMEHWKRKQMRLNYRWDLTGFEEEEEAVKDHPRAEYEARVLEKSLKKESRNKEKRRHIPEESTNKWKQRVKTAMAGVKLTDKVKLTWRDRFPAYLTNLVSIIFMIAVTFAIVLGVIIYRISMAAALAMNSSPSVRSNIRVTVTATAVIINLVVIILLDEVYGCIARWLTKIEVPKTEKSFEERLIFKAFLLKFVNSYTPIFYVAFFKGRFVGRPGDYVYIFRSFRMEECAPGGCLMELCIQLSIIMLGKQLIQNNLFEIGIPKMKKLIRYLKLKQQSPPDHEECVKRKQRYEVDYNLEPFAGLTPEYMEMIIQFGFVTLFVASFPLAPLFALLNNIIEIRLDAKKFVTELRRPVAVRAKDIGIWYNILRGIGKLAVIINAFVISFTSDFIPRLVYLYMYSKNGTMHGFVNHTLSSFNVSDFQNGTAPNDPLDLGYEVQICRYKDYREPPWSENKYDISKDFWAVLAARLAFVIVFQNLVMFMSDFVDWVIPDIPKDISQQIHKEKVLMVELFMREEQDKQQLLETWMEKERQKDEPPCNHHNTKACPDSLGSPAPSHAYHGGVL
Chain of UniProt P53778 (whole entry, looked up): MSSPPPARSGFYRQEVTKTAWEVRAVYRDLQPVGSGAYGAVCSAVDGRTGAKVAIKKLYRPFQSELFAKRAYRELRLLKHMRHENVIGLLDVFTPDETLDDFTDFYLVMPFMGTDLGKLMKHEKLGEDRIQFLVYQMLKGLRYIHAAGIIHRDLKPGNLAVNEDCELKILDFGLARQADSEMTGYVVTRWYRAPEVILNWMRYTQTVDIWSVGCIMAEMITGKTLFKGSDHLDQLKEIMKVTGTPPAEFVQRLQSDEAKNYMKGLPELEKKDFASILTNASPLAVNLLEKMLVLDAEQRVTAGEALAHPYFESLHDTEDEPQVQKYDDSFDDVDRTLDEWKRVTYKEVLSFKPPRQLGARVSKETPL
Chain of UniProt O95747 (whole entry, looked up): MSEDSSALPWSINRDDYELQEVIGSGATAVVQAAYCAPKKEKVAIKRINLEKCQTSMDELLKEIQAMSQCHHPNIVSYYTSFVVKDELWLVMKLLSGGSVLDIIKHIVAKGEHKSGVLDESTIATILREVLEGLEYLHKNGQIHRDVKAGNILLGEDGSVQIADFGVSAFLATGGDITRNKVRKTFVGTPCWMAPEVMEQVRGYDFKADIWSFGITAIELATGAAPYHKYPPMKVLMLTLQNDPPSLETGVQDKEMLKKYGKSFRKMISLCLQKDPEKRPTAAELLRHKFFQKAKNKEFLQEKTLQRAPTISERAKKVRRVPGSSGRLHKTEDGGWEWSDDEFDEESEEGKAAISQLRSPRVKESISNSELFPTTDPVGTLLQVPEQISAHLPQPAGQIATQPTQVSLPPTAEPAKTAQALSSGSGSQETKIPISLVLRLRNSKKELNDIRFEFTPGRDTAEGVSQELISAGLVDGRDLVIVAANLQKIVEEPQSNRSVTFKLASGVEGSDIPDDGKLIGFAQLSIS
Chain of UniProt O60674 (whole entry, looked up): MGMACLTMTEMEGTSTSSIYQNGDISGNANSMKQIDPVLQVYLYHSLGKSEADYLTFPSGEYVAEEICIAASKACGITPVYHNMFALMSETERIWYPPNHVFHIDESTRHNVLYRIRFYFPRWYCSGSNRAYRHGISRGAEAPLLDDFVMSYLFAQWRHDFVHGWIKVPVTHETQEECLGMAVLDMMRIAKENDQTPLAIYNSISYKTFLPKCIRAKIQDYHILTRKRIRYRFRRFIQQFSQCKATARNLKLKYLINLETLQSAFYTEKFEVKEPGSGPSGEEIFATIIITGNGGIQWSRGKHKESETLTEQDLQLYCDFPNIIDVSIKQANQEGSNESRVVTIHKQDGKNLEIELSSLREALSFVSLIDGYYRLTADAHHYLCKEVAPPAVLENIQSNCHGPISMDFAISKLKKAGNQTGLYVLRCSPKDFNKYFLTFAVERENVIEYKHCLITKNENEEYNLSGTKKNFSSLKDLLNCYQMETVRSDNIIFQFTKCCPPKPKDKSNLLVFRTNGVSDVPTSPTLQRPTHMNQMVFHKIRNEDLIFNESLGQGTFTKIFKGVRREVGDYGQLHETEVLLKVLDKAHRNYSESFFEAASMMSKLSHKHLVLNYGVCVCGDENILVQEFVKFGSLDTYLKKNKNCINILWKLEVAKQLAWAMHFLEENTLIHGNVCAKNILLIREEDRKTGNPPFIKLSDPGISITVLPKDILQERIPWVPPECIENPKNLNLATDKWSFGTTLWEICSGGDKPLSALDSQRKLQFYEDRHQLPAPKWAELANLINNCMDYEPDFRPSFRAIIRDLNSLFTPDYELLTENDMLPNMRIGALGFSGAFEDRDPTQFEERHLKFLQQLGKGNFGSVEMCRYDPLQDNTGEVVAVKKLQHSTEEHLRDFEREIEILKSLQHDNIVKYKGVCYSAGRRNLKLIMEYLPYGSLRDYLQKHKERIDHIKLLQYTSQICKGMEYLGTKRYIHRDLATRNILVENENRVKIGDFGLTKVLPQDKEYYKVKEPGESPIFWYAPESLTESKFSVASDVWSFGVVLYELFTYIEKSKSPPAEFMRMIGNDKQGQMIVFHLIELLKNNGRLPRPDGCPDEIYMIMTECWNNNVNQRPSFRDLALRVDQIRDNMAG
Chain of UniProt P23443 (whole entry, looked up): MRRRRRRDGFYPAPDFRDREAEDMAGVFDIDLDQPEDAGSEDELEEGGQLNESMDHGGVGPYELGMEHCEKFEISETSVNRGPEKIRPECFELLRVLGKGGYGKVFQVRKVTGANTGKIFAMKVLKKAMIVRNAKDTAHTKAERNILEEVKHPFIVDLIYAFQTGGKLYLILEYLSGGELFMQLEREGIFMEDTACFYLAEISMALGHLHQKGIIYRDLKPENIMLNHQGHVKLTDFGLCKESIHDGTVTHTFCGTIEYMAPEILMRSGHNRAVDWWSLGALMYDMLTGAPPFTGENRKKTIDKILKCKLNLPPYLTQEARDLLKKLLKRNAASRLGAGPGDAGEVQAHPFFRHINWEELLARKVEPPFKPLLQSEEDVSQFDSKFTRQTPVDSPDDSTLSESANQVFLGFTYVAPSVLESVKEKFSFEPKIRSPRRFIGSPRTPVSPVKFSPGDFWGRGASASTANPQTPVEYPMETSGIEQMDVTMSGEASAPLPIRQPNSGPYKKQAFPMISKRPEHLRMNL

Series 1
Organism: Sarcocystis neurona
Observed: parasite growth
Concentration: 10 µM
Setting: secondary screen
Endpoint: inhibition
CC(C)(O)c1ccccc1CC[C@@H](SCC1(CC(=O)O)CC1)c1cccc(/C=C/c2ccc3ccc(Cl)cc3n2)c1: -31%
O=C1CC[C@@H](C(=O)N2CSC[C@H]2C(=O)O)N1: -32.5%
CCC1=C(C)CN(C(=O)NCCc2ccc(S(=O)(=O)NC(=O)N[C@H]3CC[C@H](C)CC3)cc2)C1=O: -63.5%

Series 2
Structure (SMILES): C=CCc1ccc(O)c(-c2cc(CC=C)ccc2O)c1
Observed: chloride current
Method: whole-cell voltage clamp
Endpoint: IC50
Anoctamin-1 (ANO1, Homo sapiens, UniProt Q5XXA6, del476-501/R561A); membrane voltage 100 mV: 29.5 µM
Anoctamin-1 (ANO1, Homo sapiens, UniProt Q5XXA6, del476-501/F623A); membrane voltage -60 mV: 47.5 µM
Anoctamin-1 (ANO1, Homo sapiens, UniProt Q5XXA6, del476-501/M544A); membrane voltage -80 mV: 111 µM
Anoctamin-1 (ANO1, Homo sapiens, UniProt Q5XXA6, del476-501/F646A); membrane voltage -40 mV: 19.7 µM
Anoctamin-1 (ANO1, Homo sapiens, UniProt Q5XXA6, del476-501/R541D); inhibitor; R515D mutant at 20 mV: 114 µM

Series 3
SMILES: Cc1c(NC(=O)c2cc(C(N)=O)nc3cc(F)ccc23)c(C(F)(F)F)nn1Cc1ccc(C#N)cc1
Observed: cell-free assay
Method: competition with immobilised ligand
Concentration: 1 µM
Endpoint: remaining binding
Serine/threonine-protein kinase RIO2 (RIOK2, Homo sapiens, UniProt Q9BVS4): 76%
Mitogen-activated protein kinase 12 (MAPK12, Homo sapiens, UniProt P53778): 86%
Ephrin type-B receptor 4 (EPHB4, Homo sapiens, UniProt P54760): 100%
Serine/threonine-protein kinase PAK 4 (PAK4, Homo sapiens, UniProt O96013): 98%
Mitogen-activated protein kinase kinase kinase 2 (MAP3K2, Homo sapiens, UniProt Q9Y2U5): 85%
Tyrosine-protein kinase Fyn (FYN, Homo sapiens, UniProt P06241): 94%
Proto-oncogene tyrosine-protein kinase receptor Ret (RET, Homo sapiens, UniProt P07949): 94%
Testis-specific serine/threonine-protein kinase 3 (TSSK3, Homo sapiens, UniProt Q96PN8): 82%
G protein-coupled receptor kinase 4 (GRK4, Homo sapiens, UniProt P32298): 100%
Ribosomal protein S6 kinase beta-1 (RPS6KB1, Homo sapiens, UniProt P23443): 80%
Dual specificity mitogen-activated protein kinase kinase 3 (MAP2K3, Homo sapiens, UniProt P46734): 88%
Misshapen-like kinase 1 (MINK1, Homo sapiens, UniProt Q8N4C8): 89%
Protein kinase C eta type (PRKCH, Homo sapiens, UniProt P24723): 95%
Serine/threonine-protein kinase NIM1 (NIM1K, Homo sapiens, UniProt Q8IY84): 91%
Epidermal growth factor receptor (EGFR, Homo sapiens, UniProt P00533): 100%
Serine/threonine-protein kinase OSR1 (OXSR1, Homo sapiens, UniProt O95747): 67%
TGF-beta receptor type-2 (TGFBR2, Homo sapiens, UniProt P37173): 100%
Tyrosine-protein kinase JAK2, JH1 (JAK2, Homo sapiens, UniProt O60674): 75%
Receptor tyrosine-protein kinase erbB-2 (ERBB2, Homo sapiens, UniProt P04626): 100%
Mitogen-activated protein kinase 10 (MAPK10, Homo sapiens, UniProt P53779): 85%
Fibroblast growth factor receptor 3 (FGFR3, Homo sapiens, UniProt P22607, G697C): 89%
Mitogen-activated protein kinase kinase kinase kinase 4 (MAP4K4, Homo sapiens, UniProt O95819): 84%
Serine/threonine-protein kinase 33 (STK33, Homo sapiens, UniProt Q9BYT3): 80%
Serine/threonine-protein kinase WNK2 (WNK2, Homo sapiens, UniProt Q9Y3S1): 87%
Serine/threonine-protein kinase tousled-like 1 (TLK1, Homo sapiens, UniProt Q9UKI8): 79%

Series 4
Target: Cyclin-dependent kinase 5, with p35 (CDK5, Homo sapiens, UniProt Q00535)
Chain of UniProt Q00535 (whole entry, looked up): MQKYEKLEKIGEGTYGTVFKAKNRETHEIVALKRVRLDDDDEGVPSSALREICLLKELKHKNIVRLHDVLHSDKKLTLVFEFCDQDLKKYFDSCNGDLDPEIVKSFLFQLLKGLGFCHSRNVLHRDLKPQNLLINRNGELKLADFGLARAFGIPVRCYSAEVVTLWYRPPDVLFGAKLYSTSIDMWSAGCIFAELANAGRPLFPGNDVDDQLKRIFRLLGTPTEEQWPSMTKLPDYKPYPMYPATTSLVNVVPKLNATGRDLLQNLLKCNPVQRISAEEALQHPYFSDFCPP
Observed: enzyme activity
Mode: inhibitor
Concentration: 0.5 µM
Baseline: control
Endpoint: remaining activity
CC#CC(=O)Nc1cc2c(Nc3ccc(F)c(Cl)c3)ncnc2cn1: 97.9%
O=C1NC(=O)C(c2c[nH]c3ccccc23)=C1c1c[nH]c2ccccc12: 79.5%
COc1ccc(S(=O)(=O)N(CCO)c2ccccc2CN(C)CC=Cc2ccc(Cl)cc2)cc1: 99.9%
O=S(=O)(NCCNC/C=C/c1ccc(Br)cc1)c1cccc2cnccc12: 92.6%
Cc1cc(Nc2nc(-c3ccccc3)nc3ccccc23)n[nH]1: 77.1%
Oc1ccc(Nc2nc(-c3ccc(Cl)cc3)cs2)cc1: 104%

Series 5
Cell line: mouse MPNST tumor cells
Method: high-content immunofluorescence imaging
Measured: nuclear SOX9
Concentration: 10 µM
Time: 12 h
Setting: mean of 2 replicates
Baseline: DMSO control
Direction: higher = more nuclear SOX9
Endpoint: nuclear SOX9 intensity
Nc1cc(F)ccc1NC(=O)/C=C/c1cnn(C/C=C/c2ccccc2)c1: 125 % of DMSO
CCC1(c2ccccc2)NC(=O)N(C)C1=O (stereo not shown): 89.6 % of DMSO and 110 % of DMSO
Nc1nccc(/C=C/c2ccccc2)n1: 78.2 % of DMSO
COC(=O)c1cc2c(C(F)(F)F)cc(-c3ccccc3)cc2n1O: 114 % of DMSO
CCN(CC)C(=O)N1CCN(C)CC1: 96 % of DMSO and 94.9 % of DMSO
CC(C)(CO)n1cc(C(=O)c2cncc(NC(=O)Cc3ccc(Cl)cn3)c2)c2cnc(N)nc21: 101 % of DMSO

Series 6
Cell line: A-375
Concentration: 100 µM
Time: 36 h
Endpoint: viability
CCOC(=O)c1c(CSc2ccccc2)n(C)c2cc(Br)c(O)c(CN(C)C)c12: -2.49%
CCCCOc1cc(C(=O)OCCN(CC)CC)ccc1N: 57.7%
NS(=O)(=O)c1cc2c(cc1Cl)N=CNS2(=O)=O: 111%
CCC(=O)NCC[C@@H]1CCc2ccc3c(c21)CCO3: 82.8%
CO[C@]12C[C@@H](COC(=O)c3cncc(Br)c3)CN(C)[C@@H]1Cc1cn(C)c3cccc2c13: -1.08%
CC(C)(C)NCC(O)COc1cccc2c1C[C@H](O)[C@H](O)C2 (mixture of isomers): 104%
C[C@@H](O[C@H]1OCCN(Cc2n[nH]c(=O)[nH]2)[C@H]1c1ccc(F)cc1)c1cc(C(F)(F)F)cc(C(F)(F)F)c1: 0.179%
